{"data": "Measured values pooled from the literature", "note": "A part holds a random share of what one study measured."}
{"data": "Study 1", "target": "Ras GTPase-activating protein-binding protein 1, C-terminal RGG region (G3BP1, Homo sapiens, UniProt Q13283)", "technique": "RNA Bind-n-Seq", "molecule type": "RNA", "sample": "in vitro", "tested at": "1 µM", "notes": "whole 134-nt RNA, ends assumed", "with": "150 mM KCl", "baseline": "input library", "reading": "higher = stronger binding", "shared flanks, not repeated": "GGGAGUUCUACAGUCCGACGAUC … UGGAAUUCUCGGGUGUCAAGG", "chain of UniProt Q13283 (whole entry, looked up)": "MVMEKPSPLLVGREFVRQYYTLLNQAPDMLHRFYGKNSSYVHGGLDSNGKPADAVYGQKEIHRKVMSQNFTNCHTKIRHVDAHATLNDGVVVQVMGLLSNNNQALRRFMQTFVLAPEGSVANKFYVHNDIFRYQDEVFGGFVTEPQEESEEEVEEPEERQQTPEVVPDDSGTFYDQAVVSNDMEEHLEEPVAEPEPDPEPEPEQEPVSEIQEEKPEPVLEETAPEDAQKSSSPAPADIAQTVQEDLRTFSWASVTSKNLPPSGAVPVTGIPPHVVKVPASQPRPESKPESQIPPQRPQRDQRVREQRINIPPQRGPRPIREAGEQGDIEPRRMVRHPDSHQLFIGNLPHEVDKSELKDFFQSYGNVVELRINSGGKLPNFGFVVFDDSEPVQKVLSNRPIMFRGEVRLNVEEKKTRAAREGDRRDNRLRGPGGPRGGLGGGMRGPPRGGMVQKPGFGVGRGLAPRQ"}
{"Oligonucleotide": "CUGUGCUACACAUCGUAUGUACCGAAUCGGGGCCCCCCCGGCCCCCCCGGGGCCCCCCCGGAAAGUAUUAUGUUACGCCGUUCGGAUCUG", "log2 enrichment": -1.33}
{"Oligonucleotide": "AAGUCCUGUGCUACACAUCGUAUGUACCGAAUCGGUGGUUUUUUUGGUUUUUUUGGAAAGUAUUAUGUUACGCCGUUCGGAUCUGCACUU", "log2 enrichment": -1.89}
{"Oligonucleotide": "UCCUGUGCUACACAUCGUAUGUACCGAAUCGGGGUGGGGAAAAAGGGGAAAAAAAGGGGAAAGUAUUAUGUUACGCCGUUCGGAUCUGCA", "log2 enrichment": 0.86}
{"Oligonucleotide": "CUGUGCUACACAUCGUAUGUACCGAAUCGGGGAAAAAAGGGAAAAAAGGGGAAAAAAGGGGAAAGUAUUAUGUUACGCCGUUCGGAUCUG", "log2 enrichment": -0.922}
{"Oligonucleotide": "UGGCCCUGGUGGCAUGCGGGGAGGACGAGGUGGCCUCAUGGAUCGUGGUGGUCCCGGUGGAAUGUUCAGAGGUGGCCGUGGUGGAGACAG", "log2 enrichment": 2.47}
{"Oligonucleotide": "CAAGUCCUGUGCUACACAUCGUAUGUACCGAAUCGGGGCCCGGGCCCGGGCCCGGGAAAGUAUUAUGUUACGCCGUUCGGAUCUGCACUU", "log2 enrichment": -1.8}
{"Oligonucleotide": "CUGUGCUACACAUCGUAUGUACCGAAUCAAAUUUUUUUAAACCCCCCCAAAUUUUUUUAAAAAAGUAUUAUGUUACGCCGUUCGGAUCUG", "log2 enrichment": -1.03}
{"Oligonucleotide": "ACCAUGCAGGUGGGCAUCUUUGGGAAGUGGGGCAAGGCGGGGAUAGGGAGGGGGGUAACACUUUGGGAACAGGUGGUCCCAGGUCGUUUC", "log2 enrichment": -1.25}
{"Oligonucleotide": "GCAGGAAGUAAAAACAAAUGGAAAUGCUUCUGAUAGUGGCAGGGGUGGGGGUUGCUAAGGAAAGGGUGGGAUGGGAGUGGGUAAAGAGUU", "log2 enrichment": 1.46}
{"data": "Study 2", "target": "Histone acetyltransferase KAT6A, winged helix 2, GST fusion (KAT6A, Homo sapiens, UniProt Q92794, residues 85-181)", "technique": "protein binding microarray", "molecule type": "double-stranded DNA, one strand shown", "sample": "in vitro", "tested at": "not given", "notes": "8-mer, flanks averaged, mean of 2 arrays, mostly near background", "baseline": "not given", "reading": "higher = stronger binding", "Residues (chain)": "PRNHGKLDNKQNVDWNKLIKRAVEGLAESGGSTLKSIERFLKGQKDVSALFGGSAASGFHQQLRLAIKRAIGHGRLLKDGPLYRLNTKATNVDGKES"}
{"Oligonucleotide": "AAGCGGGG", "E-score": -0.00951}
{"Oligonucleotide": "AGTACTAC", "E-score": -0.175}
{"Oligonucleotide": "ATTTCGCG", "E-score": 0.208}
{"Oligonucleotide": "ATCGGTGG", "E-score": -0.14}
{"Oligonucleotide": "GCATTGTA", "E-score": -0.0538}
{"Oligonucleotide": "ATTGTTAA", "E-score": -0.0671}
{"Oligonucleotide": "ATCGTGGC", "E-score": 0.051}
{"Oligonucleotide": "CTCAGTTC", "E-score": -0.203}
{"Oligonucleotide": "TGTTCTAA", "E-score": 0.0739}
{"Oligonucleotide": "AGGTCCAA", "E-score": -0.0655}
{"Oligonucleotide": "GGGACCAA", "E-score": 0.0407}
{"Oligonucleotide": "CAAAAGTG", "E-score": -0.0771}
{"Oligonucleotide": "GATTCACA", "E-score": -0.0355}
{"Oligonucleotide": "CACCCCTA", "E-score": -0.287}
{"Oligonucleotide": "CGTTTGTC", "E-score": 0.00426}
{"Oligonucleotide": "CATCTGGA", "E-score": -0.0489}
{"Oligonucleotide": "CCCAGCAG", "E-score": 0.208}
{"Oligonucleotide": "CGATAACA", "E-score": -0.108}
{"Oligonucleotide": "AGTTTCCC", "E-score": 0.15}
{"Oligonucleotide": "AAAGAAGA", "E-score": -0.0322}
{"Oligonucleotide": "AGAATTAT", "E-score": "8e-05"}
{"Oligonucleotide": "CAATTAAA", "E-score": 0.0506}
{"Oligonucleotide": "AAGGACAG", "E-score": -0.0244}
{"Oligonucleotide": "CATCACAA", "E-score": 0.0852}
{"Oligonucleotide": "ATACTACG", "E-score": -0.039}
{"data": "Study 3", "target": "Sal-like protein 4, full length isoform B (SALL4, Homo sapiens, UniProt Q9UJQ4-2, residues 1-616)", "technique": "universal PBM", "molecule type": "double-stranded DNA, one strand shown", "sample": "in vitro", "tested at": "not given", "notes": "8-mer, flanks averaged, mean of replicates", "reading": "higher = stronger binding"}
{"Oligonucleotide": "CATGGTCG", "E-score": -0.126}
{"Oligonucleotide": "AAACCATG", "E-score": 0.0206}
{"Oligonucleotide": "ACCAAGCT", "E-score": 0.0282}
{"Oligonucleotide": "ACGCGCAG", "E-score": -0.331}
{"Oligonucleotide": "AAATAGGC", "E-score": 0.139}
{"Oligonucleotide": "AAGCTGGT", "E-score": -0.0341}
{"Oligonucleotide": "CACGAAGG", "E-score": -0.155}
{"Oligonucleotide": "ACCCTAGT", "E-score": -0.109}
{"Oligonucleotide": "GACCGGGC", "E-score": -0.357}
{"Oligonucleotide": "CACTAGAG", "E-score": 0.022}
{"Oligonucleotide": "AAAAGACT", "E-score": 0.0912}
{"Oligonucleotide": "AGCGTGTG", "E-score": -0.00383}
{"Oligonucleotide": "CACTGATA", "E-score": 0.0924}
{"Oligonucleotide": "ACCTCGAG", "E-score": -0.0213}
{"Oligonucleotide": "ACGGGAGT", "E-score": 0.0318}
{"Oligonucleotide": "AAAAATAG", "E-score": 0.369}
{"Oligonucleotide": "ACTGACCC", "E-score": -0.165}
{"Oligonucleotide": "GCTCTTAA", "E-score": 0.0429}
{"Oligonucleotide": "CTTGCTAA", "E-score": -0.0194}
{"Oligonucleotide": "CTCGTCTA", "E-score": 0.0229}
{"Oligonucleotide": "ATACTTGC", "E-score": 0.224}
{"Oligonucleotide": "GGATCGAC", "E-score": -0.262}
{"Oligonucleotide": "AGTCAGGG", "E-score": -0.209}
{"Oligonucleotide": "ATTGCAGC", "E-score": 0.0465}
{"Oligonucleotide": "AGGAGAGA", "E-score": 0.0366}
{"data": "Study 4", "target": "RING finger protein unkempt homolog, zinc fingers 1-6, GST-SBP tag (UNK, Homo sapiens, UniProt Q9C0B0, residues 30-357)", "technique": "RNA Bind-n-Seq", "molecule type": "RNA", "sample": "in vitro", "tested at": "not given", "notes": "RNA with constant flanks, human and mouse sites, ends assumed", "baseline": "input RNA pool", "reading": "higher = stronger binding", "shared flanks, not repeated": "GGGAGUUCUACAGUCCGACGAUC … CAACAGAGGAUUGAGCAUCA", "Target sequence (chain)": "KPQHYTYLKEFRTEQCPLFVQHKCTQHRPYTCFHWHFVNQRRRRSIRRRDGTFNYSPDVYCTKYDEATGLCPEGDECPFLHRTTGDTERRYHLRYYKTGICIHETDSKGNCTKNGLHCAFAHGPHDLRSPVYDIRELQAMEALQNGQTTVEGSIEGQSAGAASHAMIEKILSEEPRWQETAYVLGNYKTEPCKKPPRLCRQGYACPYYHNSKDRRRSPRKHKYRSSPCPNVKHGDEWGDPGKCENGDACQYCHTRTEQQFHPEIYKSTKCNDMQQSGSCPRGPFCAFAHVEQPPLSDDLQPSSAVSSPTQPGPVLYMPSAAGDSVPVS"}
{"Oligonucleotide": "CCACCAGUCACUGAGGAAGAUCUAGAUUAUCGGACAGAAAACCAGCAUGUACCCACCACCAGUUCUUCAUUAACUGACCCUCAUGCCGGAGUGAAGGCAGCCCUGUUACAGCUGCUUGCU", "bound/input enrichment": "0.204 ratio"}
{"Oligonucleotide": "AAAUGUACCACCUGUCAUUUCAACACCUCACCACUACCUCAUCAGUAUCUACCGGGAUAAGCUCUUCUUUGUAUCUGUCAUACAGACCGAAGUGCCACCUCUCUUUGUAAUUGAGUUCCU", "bound/input enrichment": "0.333 ratio"}
{"Oligonucleotide": "GCAUGGACACUACUGCUGACCAUAUGCCCAAUCAAUGAAGUGAAGAAAAAGCUUGAGAUGCAUUUCCAUAAGCUUCCAAGCCUCCUCUCUUGUGAUGAUGUAAACAUGAGAAUAGCUGCU", "bound/input enrichment": "0.356 ratio"}
{"Oligonucleotide": "UCCCUCUCCACUCCCAUCUUCAGGCCAGCAGUAUCUGUUGGAAAUGUUGGCCAGCUUGCAAUGGAUCUGAUUAUUUCUACACUGAAUAUGUCUAAGAUUGGUUACUUCUAUACCGAUUGU", "bound/input enrichment": "0.311 ratio"}
{"Oligonucleotide": "AUCAGUGAGGUGAAAAACAGACCUGAUCAGGGGCUAGAGGGUCUGACUUCAGGGCUCCAGUGCCCUGUUGAAGCAGAGCAGCUCUCUGACACAGAUUCUGUGCAAAUGUUUCUUGAACUU", "bound/input enrichment": "0.0733 ratio"}
{"Oligonucleotide": "UGUACCCAGAUUCUAAGAACCUGGAGAAGGAUUAGCAGUUCUUAGUAAGUUUACUGUGUAUAGGAACGGUUUGUAUUUCAUUACAGCUAUUCAUCUUUUCUACAUUAAAAAUAUUUUUCU", "bound/input enrichment": "3.12 ratio"}
{"Oligonucleotide": "AAGCCAAAAAUCCAGAUUUGUAUAUGAAAUCUUACCAUUUUAAAAGAUUGGCAGCUAAUUAUUUUUUUAAAAAGCUGUGCAGUGUGAUGUGUCCCAAACGGACUGGCUCAUGGGUGGCCA", "bound/input enrichment": "0.412 ratio"}
{"Oligonucleotide": "GUGGUAGCUUUCCAGAAUUUAUUCAACAAACCAACUGGAAUGAAUUCUUCAGUAGUGCCCUUGUCUCAGGGCCAAGUAAUUGUAAGCAUCCCCACAGGUUCCACAGUGUCAGCCGGAGGA", "bound/input enrichment": "0.474 ratio"}
{"note": "Repeated from above (study 3):"}
{"Oligonucleotide": "ACGGGAGT", "E-score": 0.0318}
{"Oligonucleotide": "AGTCAGGG", "E-score": -0.209}
{"Oligonucleotide": "GACCGGGC", "E-score": -0.357}
{"Oligonucleotide": "AAATAGGC", "E-score": 0.139}
{"Oligonucleotide": "AAACCATG", "E-score": 0.0206}
{"Oligonucleotide": "CACTAGAG", "E-score": 0.022}
{"Oligonucleotide": "ATTGCAGC", "E-score": 0.0465}
{"Oligonucleotide": "ACTGACCC", "E-score": -0.165}
{"Oligonucleotide": "ACCTCGAG", "E-score": -0.0213}
{"Oligonucleotide": "GCTCTTAA", "E-score": 0.0429}
{"Oligonucleotide": "AAAAGACT", "E-score": 0.0912}
